Experimental data of several laboratories.
Parts stem from different laboratories: compare values within a part only. Changes are numbered by the printed parent chain.

Study 1 — technique: RNA Bind-n-Seq; molecule type: RNA; sample: in vitro; concentration: 100 nM; reference: input RNA pool; reading: higher = stronger binding
Target: RING finger protein unkempt homolog, zinc fingers 1-6, SBP tag (UNK, Homo sapiens, UniProt Q9C0B0, residues 30-357)
Sequence of UniProt Q9C0B0 (30-357, looked up): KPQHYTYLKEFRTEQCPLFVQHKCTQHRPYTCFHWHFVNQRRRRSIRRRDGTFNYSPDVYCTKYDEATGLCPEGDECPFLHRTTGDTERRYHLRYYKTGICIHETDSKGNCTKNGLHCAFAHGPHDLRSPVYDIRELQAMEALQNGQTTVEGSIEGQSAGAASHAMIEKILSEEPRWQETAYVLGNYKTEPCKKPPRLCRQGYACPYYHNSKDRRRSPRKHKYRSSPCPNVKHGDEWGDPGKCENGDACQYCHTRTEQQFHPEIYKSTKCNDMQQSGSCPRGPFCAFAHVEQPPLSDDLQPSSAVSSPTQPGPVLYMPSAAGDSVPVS
Setting: RNA with constant flanks, vertebrate orthologous sites, ends assumed
`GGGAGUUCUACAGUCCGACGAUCAAGAGCUGCGUAGAGUAGGGUCCUGUUCUCUUUAGAGCGUUCUUUCUCUGUUCUGUCUUCCUCAGGGUGGGGUAGGGGUUGUGGUGCACCCCAGCCCUGAGGCGUGAGUGUUUGUGGUUCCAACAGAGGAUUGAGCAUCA` has a bound/input enrichment of 0.63 ratio.
With `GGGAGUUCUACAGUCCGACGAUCUGUGAGCAGUGGAGACUGGCCUGCAACAAGGAGCAAGUCAAGAAAUGUCCAGUAAAACUGCUGUCCUCUGCACUAUCGUUAACCUGCUGUCUCGCUUUUCAUGUAGAUGUAAAUUACUGACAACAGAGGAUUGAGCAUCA` the bound/input enrichment was 0.323 ratio.
For `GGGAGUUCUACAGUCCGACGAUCUUAUGGCCGCUUCUCCCCUGCCUCAGUGAGGUAAAGUCUCCCUUGGCAUUUGGUUGGUACCAGAGCCAGCCAUACCUAAGACAUGUUUCCACAUUUCUCUCACACUCGUAGUCAUCUUCGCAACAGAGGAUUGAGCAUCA`, the bound/input enrichment was 0.327 ratio.
`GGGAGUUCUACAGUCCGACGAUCCCUACAAUAAUGAAAACCUACAGGAAAUUUUUUAUUUUUCAUCAUCCCCUUAGGCAUAUUUAGGCUUUUCCCCAGGCAGAUCAUUCUGAGUGUGCGAGUGUGUGUGCACAUGUUACAAAGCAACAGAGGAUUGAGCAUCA` has a bound/input enrichment of 1.11 ratio.
`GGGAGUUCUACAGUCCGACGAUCGCAAUGAAAAAGCAGCCCUUCUCCCAGCCCCCUUUUCACUAGGAGAUACAAACAUUACAAUAGAAGAGCAAUUAAACUCAAUAAAUUUAUCUUUUCAGGAUGAUCCAGAUUCCAGUACCACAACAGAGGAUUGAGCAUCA` gave a bound/input enrichment of 2.95 ratio.
With `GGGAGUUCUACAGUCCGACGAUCUAAAGAAUCAGGUAUUUAAAUAUCAAGUGGAAAAAUUUGAAACUCUAUUUAUGAAUUAGUUAGGUUAUUUAAAGAAAAAGGUCAUUCCUCAUUUGUGAAGUGCUGUGCAGUAAGUGCAUUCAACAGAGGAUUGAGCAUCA` the bound/input enrichment was 0.999 ratio.
For `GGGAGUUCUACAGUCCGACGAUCGAAUUGAACAAAAACGUUUCCACUGGGUUUGGCCUGUAAGAAAAAAUGUACCCGAGCACAUAGAGCUUUUUAAUAGCACUAACCAAUGCCUUUUUAGAUGUAUUUUUGAUGUAUAUAUCUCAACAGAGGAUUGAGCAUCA`, the bound/input enrichment was 0.622 ratio.
For `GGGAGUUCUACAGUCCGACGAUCAUUUAAAAUUCCAGUAGUUAUAUUUAAUGAUCUCACCCCUGAGUUUCUUUUUCAUUAAAGUAGCUUUCAUUUCUAUUAUUCCAAUUUACUGAUAUGAACAAAUAGAAGGUCCGUGUGAGCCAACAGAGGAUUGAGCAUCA`, the bound/input enrichment was 0.605 ratio.
`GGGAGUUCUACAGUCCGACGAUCGUGUCCCUCCCGCGGUGACGUCCUUUCUUACUGUCCCCGGCCAGGGCUGAGGGCCUGCAUUAGAAACAUUUUUUAAAUUGUCGUACAGGAAGAGAUGUGUCUAGCACAGCGUCUCAAAGCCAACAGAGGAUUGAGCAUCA` has a bound/input enrichment of 0.961 ratio.
`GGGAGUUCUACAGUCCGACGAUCACAUGCUCUCUGCAGGAAGCUGCUAGCUGCUUAGCAUUCAUUUGAUCCGUAAUAUUGAGAAGAAAGGUUUGUGGUGGUGUUUGUGUUUUUUUUUUUUAAGAUAUUGAGACUUAACUAAAACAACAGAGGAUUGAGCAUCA` gave a bound/input enrichment of 1.13 ratio.
`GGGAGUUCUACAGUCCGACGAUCAUAGAAUAUUGGAUGCAGCGUAGAAGUAGAUCCGAGGCAGUGACUUCAGCUCUGUCGAGACGGUUAGUUUCAAAGGCACCUGCUCUCACGCAGACUUCUCGAUUGGGUUGUUUGCUAGAGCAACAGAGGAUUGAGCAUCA` gave a bound/input enrichment of 0.293 ratio.

Study 2 — technique: protein binding microarray; molecule type: double-stranded DNA, one strand shown; sample: in vitro; concentration: not given; reference: not given; reading: higher = stronger binding
Target: Histone acetyltransferase KAT6A, winged helix 2, GST fusion (KAT6A, Homo sapiens, UniProt Q92794, residues 85-181)
Setting: 8-mer, flanks averaged, mean of 2 arrays, mostly near background
Target sequence (chain): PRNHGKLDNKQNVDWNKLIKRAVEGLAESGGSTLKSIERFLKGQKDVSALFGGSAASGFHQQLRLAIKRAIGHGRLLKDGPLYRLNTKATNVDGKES
`GCCTACGC` has an E-score of 0.0773.
With `ATATCTAC` the E-score was -0.0882.
For `TCTCCAAA`, the E-score was 0.0889.
With `CCGGGTCA` the E-score was 0.0279.
`GTTCAAGA` has an E-score of 0.104.
The E-score of `GCGAAATA` is reported as 0.0806.
`CATTGCAA` gave an E-score of -0.171.
With `ACGAGAAC` the E-score was 0.0108.
`AGGGGGAC` has an E-score of -0.129.
`AGCCTTGA` has an E-score of -0.027.
`CTTACATC` has an E-score of -0.141.
For `GTCTCGTA`, the E-score was -0.131.
`ACCGTACA` gave an E-score of -0.147.
For `GCCACGCA`, the E-score was 0.0851.
The E-score of `ACGCCCAA` is reported as -0.00465.
`ATACTTTC` gave an E-score of -0.0544.
With `ACACATGA` the E-score was -0.153.
For `CCAACTAA`, the E-score was -0.0725.
The E-score of `AGCGCGTG` is reported as -0.14.
`GTCCTACA` gave an E-score of 0.0644.
`ACAGCTTC` gave an E-score of -0.134.
`AGGCCTAG` has an E-score of -0.0424.
`CCCCAGTA` gave an E-score of -0.134.
For `ATAACCCA`, the E-score was -0.157.
`TAACTCTA` gave an E-score of -0.222.

Study 3 — technique: RNA Bind-n-Seq; molecule type: RNA; sample: in vitro; concentration: 365 nM; reference: no-protein control; reading: higher = stronger binding
Target: RNA binding protein fox-1 homolog 2, RRM domain, GST-SBP tag (RBFOX2, Homo sapiens, UniProt O43251-10, residues 100-194)
Setting: natural RNA segment, single round, ends assumed
Target sequence (chain): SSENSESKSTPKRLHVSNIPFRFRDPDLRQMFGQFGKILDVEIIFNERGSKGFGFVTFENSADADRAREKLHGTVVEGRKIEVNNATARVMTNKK
Under “RBNS enrichment (R)”, `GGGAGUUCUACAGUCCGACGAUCCCACUGUCCUUCCUGGUCUCGCACUGCCACUGCAUGGCCUCCUGUCACUGUGAAUCGUGGCCCAGUCUCAGUUUGUAGUUUCUCAUUAAAUUGGCCCUUUCACUCCCCCGUGGAAUUCUCGGGUGCCAA` is recorded as 1.11.
For `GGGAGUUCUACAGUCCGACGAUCAUAUAGUGUGCCAAUUUUGUGACUGUAAUCAUGUGAAAGCCCCAUUGAACCGAAGAAUUAUGUCUGCCCUACAAAUUGAUUUGUGUAAAAUAAAGUAUAACUAAAUCUCCUGGAAUUCUCGGGUGCCAA`, “RBNS enrichment (R)” read 2.94.
Under “RBNS enrichment (R)”, `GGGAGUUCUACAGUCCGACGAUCAAAAAAGGAAAAAAAAAAAAAGUAAUCUUAGGGUUCAUAGUUAUGAUCCUGUUGUAACUAUCUUCGGAAGGCAGCAGUAUCUUCUGGAACUUCCAUAUUCCAUUCCUUCCUGGAAUUCUCGGGUGCCAA` is recorded as 0.334.
`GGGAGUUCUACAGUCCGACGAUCUGCAGUGGUGGUGAGGCCGCCCCGCUCCAUCCCGAGGCAGCCAGGGUUUGUUUUGCGCUCUCCUGUCACAAAUGCUGCACUAUUGGUUCUUAAGUUUUUUAUCUCCAGAUUGGAAUUCUCGGGUGCCAA`: “RBNS enrichment (R)” 0.352.
`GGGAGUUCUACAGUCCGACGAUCCUCCUCCUUUGGAGAAGCAAUAAUUCAUGGGGGAUGAUACAGUAGCACUUUACAAAUGGCUCCAUGUCAUUCAUCCCAGGGGCCAUAAUCUCUUGCACCACCUAUUCUUAUGGAAUUCUCGGGUGCCAA` — result for “RBNS enrichment (R)”: 0.223.
Under “RBNS enrichment (R)”, `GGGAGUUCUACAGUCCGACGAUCCAGGAACCCAUUGUGGAGUAGACUCUCUUCUUCUAUGGAGCCUCUGACAUGGGGAGCAAUGCUAAGCAAGCUAAGUGUAAAAGAAAAGUGACAGAAUAAUUUUGGAAGAGUGGAAUUCUCGGGUGCCAA` is recorded as 0.706.
For `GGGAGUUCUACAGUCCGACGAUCAUUUGUUGUUGUUUUUCCUCAAAAUUACCAAACAAAGCAAAAAAUACCCUUGUUUUUUAUAGUUGAGAUGUCAAGAAGUUAAAUUGAGGCUUAAUGAGCAUAGGUAGCUUUGGAAUUCUCGGGUGCCAA`, “RBNS enrichment (R)” read 0.483.
`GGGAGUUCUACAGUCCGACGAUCACACCCUUCCCACCCUGCUGUGGGGCCCUGCCUUUGUGGGGAGCAGCCAGCCCUCUGCCCCUGCCCAGGGCUCCCCAACUAUAGGCCUGGGACCCCCGCCCAGCUUGGGGUGGAAUUCUCGGGUGCCAA`: “RBNS enrichment (R)” 0.705.
`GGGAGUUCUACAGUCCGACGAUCCAUCCUACAUUCUGACCUUCAAAGAGAAGUGAGCGCAUCCCAGAAACAGAGAUCAGAUGAAGAUAACAAGCCAGAUGCUGGUCCUGAUGCUGCCGGCAAGGAGAGUGCAGUGGAAUUCUCGGGUGCCAA`: “RBNS enrichment (R)” 0.615.
`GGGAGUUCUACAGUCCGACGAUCUCCAAAUUGUUCUGUAUAAAGAUGCUCUUAAAAGACACAAGAGUUAUCCUAGAACCUUAAUUCUUUUUUAUUUGAAAUUUUAAGUCAAGUCCUUUAUAAAGACCAUAGCAUGGAAUUCUCGGGUGCCAA`: “RBNS enrichment (R)” 1.31.
`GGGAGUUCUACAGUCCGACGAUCCUACCAGCUAUUGACAGAGUACAGAGUUGAUUUUUUAAUAAAAAGUUAUAUAUAAUUAUCCCUUUAAUUAAAGGGAACAGAUGGGCGUUUCUAGUUUUAAGCAGGCAGGAUGGAAUUCUCGGGUGCCAA` — result for “RBNS enrichment (R)”: 0.747.
Under “RBNS enrichment (R)”, `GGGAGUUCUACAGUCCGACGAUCUGUAACACUAAAGUAGGUGGUUCGUGUGUGUUCUCAUUACCUGGUUAUGAUAGAUAUGCACAUCAAAGCCUUUACCAGUAUCUUCCUGUAUUCCGUAUCAGAUUGCAAAGUGGAAUUCUCGGGUGCCAA` is recorded as 0.322.

Study 4 — target: CCNF, cyclin fold, Cln2 fusion (human); technique: yeast growth competition, sequencing; sample: yeast; setting: weak parent motif; reference: not given; reading: higher = stronger binding
Parent: CDAN1 docking peptide (human); RGARSQLFPPTEA
For `L7A`, “normalised enrichment score” read -0.0436.
`F8A`: “normalised enrichment score” 0.631.
`P9A` — result for “normalised enrichment score”: 0.415.
Under “normalised enrichment score”, `G2A` is recorded as 0.433.
For `E12A`, “normalised enrichment score” read 0.87.
Under “normalised enrichment score”, `T11A` is recorded as 0.585.

Study 5 — technique: universal PBM; molecule type: double-stranded DNA, one strand shown; sample: in vitro; concentration: not given; reading: higher = stronger binding
Target: Sal-like protein 4, full length isoform B (SALL4, Homo sapiens, UniProt Q9UJQ4-2, residues 1-616)
Setting: 8-mer, flanks averaged, mean of replicates
With `AAGGGTGA` the E-score was -0.00232.
The E-score of `CTCGCATA` is reported as 0.079.
The E-score of `ACAAAAGC` is reported as 0.149.
`CGGGGCAG` gave an E-score of -0.339.
For `GAGTCGAC`, the E-score was -0.159.
The E-score of `ATAATTGC` is reported as 0.344.
`GCACGCTA` has an E-score of -0.16.
`AGGTTCGA` has an E-score of 0.0047.
`AGAAAGGA` has an E-score of 0.00351.
The E-score of `GCCCGAAC` is reported as -0.227.
With `AGTAGTGC` the E-score was -0.154.
The E-score of `CATGATGG` is reported as -0.113.
`CCGTTCCA` gave an E-score of 0.0388.
`ACACCATA` gave an E-score of 0.194.
With `ATTGCGGG` the E-score was -0.0159.
The E-score of `GGGTACTA` is reported as 0.0761.
For `TCGAGGCA`, the E-score was -0.0367.

For quick reference, copied from above (study 2):
`GCCTACGC` has an E-score of 0.0773.
With `ATATCTAC` the E-score was -0.0882.
For `TCTCCAAA`, the E-score was 0.0889.
With `CCGGGTCA` the E-score was 0.0279.
`GTTCAAGA` has an E-score of 0.104.
The E-score of `GCGAAATA` is reported as 0.0806.
`CATTGCAA` gave an E-score of -0.171.
